Published values pooled from the literature.
Each numbered part is a random draw from the data of one study; scales do not carry over between parts. Substitutions count along the parent as printed.

Set 1 — method: protein-binding microarray; form: double-stranded DNA, one strand shown; medium: in vitro; concentration: 250 nM; setting: 60-bp whole probe; together with: salmon DNA 0.4 mg/ml; relative to: random background probes; direction: higher = stronger binding; shared flanks, not repeated: GCCTAGCAC … GTCTTGATTCGCTTGACGCTGCTG
Target: Interferon regulatory factor 5, full length, phosphomimetic (IRF5, Homo sapiens, UniProt Q13568-2, residues 1-514, K96S/S451D/S453D/S456D/S462D)
| Oligonucleotide | log fluorescence [z-score] |
| --- | --- |
| GACGAACTGAGTATCGAGAAGTGCTAG | 1.67 |
| GACTGACTGCTTCTCCTGACGTGCTAG | -0.21 |
| TGACTTTTGAGAGATGGAAACGTGCTA | 0.654 |
| TTAGATTTCAGCTCCGATTAGTGCTAG | 0.648 |
| TTAGAACTGGGGACTGGAATAGTGCTA | -0.517 |
| TTAGAACTGAGTATCGATCAGTGCTAG | 5.97 |
| TTAGAGCTGAGTTTCGATTAGTGCTAG | 9.04 |
| GACGAGCTGGGGTTTCGAGACGTGCTA | 0.683 |
| CCCACCCTCAGGGAGCCTGTGTGCTAG | -0.97 |
| GACGGACTGCTTATCCGGACGTGCTAG | -0.414 |
| GACGGTCTCGGTTCCGGGACGTGCTAG | 0.497 |
| TTAGATTTCGACTTTCGGTTAGTGCTA | 10.3 |
| GACGATATCCTTCTCCTGACGTGCTAG | 0.247 |
| CACGATTTCAGTTCCGAGACGTGCTAG | 1.14 |
| CATTGCCTATTTTTCACCTGGTGCTAG | 0.364 |
| TTAGTACTGAGACTGGATTAGTGCTAG | -0.028 |
| TCACTTTCCAACTCTGTTACTGTGCTA | 1.21 |
| TTCCTTTGCTTTCTCCCAAGGTGCTAG | 2.53 |
| TTAGATATCGGTCTCGGTTAGTGCTAG | 5.31 |

Set 2 — method: protein-binding microarray; form: double-stranded DNA, one strand shown; medium: in vitro; concentration: not given; direction: higher = stronger binding
Target: Max-binding protein MNT, bHLH-zipper, MAX partner unstated (MNT, Homo sapiens, UniProt Q99583, residues 220-300)
Setting: k-mer, scored over probes, only values ≥0.25
Residues (chain): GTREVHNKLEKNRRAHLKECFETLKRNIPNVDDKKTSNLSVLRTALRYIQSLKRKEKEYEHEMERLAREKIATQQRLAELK
| Oligonucleotide | E-score |
| --- | --- |
| AGGTGGCG | 0.335 |
| CCATGCAG | 0.363 |
| CCCCATGC | 0.409 |
| CCACACGA | 0.264 |
| AAGCGCGC | 0.282 |
| CATGTGCC | 0.464 |
| ACGCGGCC | 0.254 |
| AAACGCGT | 0.27 |
| CCCCTCCC | 0.35 |
| CACGTCAC | 0.267 |
| ACATGTCG | 0.283 |
| AACATGAG | 0.291 |
| GCACGCAA | 0.266 |
| ATGGGGCG | 0.285 |

Set 3 — method: protein binding microarray; form: double-stranded DNA, one strand shown; medium: in vitro; concentration: not given; relative to: not given; direction: higher = stronger binding
Target: Histone acetyltransferase KAT6A, winged helix 2, GST fusion (KAT6A, Homo sapiens, UniProt Q92794, residues 85-181)
Setting: 8-mer, flanks averaged, mean of 2 arrays, mostly near background
Construct (chain): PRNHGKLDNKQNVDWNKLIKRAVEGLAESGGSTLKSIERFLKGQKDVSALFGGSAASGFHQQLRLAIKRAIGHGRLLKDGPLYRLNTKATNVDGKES
| Oligonucleotide | E-score |
| --- | --- |
| AACTTATA | 0.0112 |
| CCTAGTCG | -0.0608 |
| TATGCAGA | 0.0861 |
| CTGTACGC | -0.0268 |
| AGACGCCG | 0.0144 |
| GATCTGTA | -0.288 |
| CCCCTTTC | -0.0709 |
| CCACTAGA | -0.148 |
| ATAGAGGG | -0.0443 |
| GCGTCTAA | -0.0679 |
| CAAACCGG | -0.0295 |
| GAGTGCGC | 0.0254 |
| GATCTTTA | 0.167 |
| CACCTGCC | 0.16 |
| AGCTTATC | -0.0911 |
| TACATACA | -0.024 |
| GACATTCC | -0.132 |
| AAAAGCAC | -0.00136 |

Set 4 — method: RNA Bind-n-Seq; form: RNA; medium: in vitro; concentration: 365 nM; relative to: no-protein control; direction: higher = stronger binding
Target: RNA binding protein fox-1 homolog 2, RRM domain, GST-SBP tag (RBFOX2, Homo sapiens, UniProt O43251-10, residues 100-194)
Setting: natural RNA segment, single round, ends assumed
Shared flanks, not repeated: GGGAGUUCUACAGUCCGACGAUC … UGGAAUUCUCGGGUGCCAA
Target sequence (chain): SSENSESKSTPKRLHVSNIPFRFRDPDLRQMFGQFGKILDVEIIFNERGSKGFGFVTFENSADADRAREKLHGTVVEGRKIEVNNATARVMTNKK
| Oligonucleotide | RBNS enrichment (R) |
| --- | --- |
| CUUUUUUGAGAGCACCCAGGUGACUUCUGACUUUUUCUGGCAAAAAUGUUGACUCUCCAUCCAUAGUGUUAGGGGCAGCCGUGGAAGCAGCAGCAGCCAGGGAUGUCUCU | 0.676 |
| UGCUUCUUGCUGGGUUUUUGUACAUGUAAACAUUGUCAAGCUGUGAAAGAAAAUGGCUGGAGGUGUGCUUUGUGUGAAAGGUGAGCAAUAAAGUAUCUGUUAAGUUCUCU | 0.381 |
| CUGCUCAGAAAAGCGCUGCUCUUGUAUGUCUCAUUGGUAUUGGAAAAAUAAACCUGUACAACCUGCACUUGUCUCCUUGUCAUCUGUGGCUGCCUGUGGGUGUGGGGAGG | 0.787 |
| GUAGCUGCCCUAAUGUUGCAUAUUAGGCGGCGGGGGCAGAGAUAAGGGCCAUCUCUCUGUGAUUCUGCCUCAGCUCCUGUCUUGCUGAGCCCUCCCCCAACCCACGCUCC | 0.274 |
| AUCGAGGCAAAGUAAUUAGUCAUGUUUGGGUUUGCUUUUUUUGUUGAUAAGAUUAACAAUGUGUGCUUUGUAAAUGCCUUUUUCCUUAUCUUCUAUGUCUCUGUCAAGGA | 0.597 |
| UGACAGUCACCUGGGGUCCCCCCUCUCCCUGGUUCCACCUUUCUGAGGAGGAGCCUGGAGUCAGGGCUGGGUUUUGGAUUAACCCAUCCUUCCUAGUUAACACCUUUUUG | 0.258 |
| CUCCACACAGUGGCCCCAGCCGUGACCACCCUGUACCAGUCCCUGCUGUGUCCUGUCUACCUGUGUGUUCUCUGACUACCGCACUGGCCAUUAAAUAUGGCAGAGACUGC | 0.283 |
| GAGGUGGCUGAAAGUGGUGUCCAGAUGUCCUUCCGAGGACUCGGCGUAUCCGCCACCAGGGACAUUAAGAAACCGCACGUGAUGUCGCUAUGCUCUAACGAUCACCUCAG | 3.11 |
| GUGCCUUCCAAACCAAACUGCCCCUCAUGAGGUUAGGGUCCCCCACCCUCCACCUGCCCAGAGGCCAACUCUGUUCCCUUCUCCUUUCAUCCCAGAGGGGCCUCAUCAGC | 0.538 |
| ACAUUUUCAUGACCUGGUUAUAGCCUUUGCUGGUGUUUUUAAAAUACCUGGACUCAAUGACAAAGACCGAGUCUUCUUUUUUUUUAAACAAAAACAAAAAAAGCAACCAG | 0.532 |
| GUGACUGGAUAGCAGUUUUAAGUGGCGUUCACCUAGUCAACACGACCGCGUGUGUUGCCCCUGCCCUGGGCUCCCCGCCAUGACAUCUUCACCUUGCAGCUUGUGCUGAG | 0.32 |
| AUAGCCUAAGUGUGUAACAGGCUAUAUACAUAUCAUCAGGGUCUGUGUAAGUAUACUCUGUGAUGUUCAUACAGUGAUGAAAUCACCCAAAGACACAUUUCUCAGAACGU | 0.579 |

Set 5 — target: CCND3, cyclin fold, Cln2 fusion (human); method: yeast growth competition, sequencing; medium: yeast; setting: weak parent motif; relative to: not given; direction: higher = stronger binding
Parent: E2F1 docking peptide (human); PPVKRRLDLETDH
| Change | normalised enrichment score |
| --- | --- |
| PPVKRRLDLMTDH [E10M] | 0.0709 |
| PPVKRRLDLETDV [H13V] | 0.15 |
| PPVKRRLDLDTDH [E10D] | 0.228 |
| PPVKNRLDLETDH [R5N] | 0.133 |
| PPVKRRLMLETDH [D8M] | 0.125 |
| PPVKRRLDLTTDH [E10T] | 0.127 |
| PPVKRLLDLETDH [R6L] | 0.136 |
| PPVKRRIDLETDH [L7I] | 0.104 |
| PPVKCRLDLETDH [R5C] | 0.128 |
| PPDKRRLDLETDH [V3D] | 0.0652 |
| PPVKRRLDLETHH [D12H] | 0.08 |
| PPVKGRLDLETDH [R5G] | 0.0274 |
| PPVKRALDLETDH [R6A] | 0.0389 |
| PPVKRGLDLETDH [R6G] | 0.0856 |
| PPVKRRLALETDH [D8A] | 0.127 |
| PPVKRWLDLETDH [R6W] | 0.0909 |
| PCVKRRLDLETDH [P2C] | 0.182 |
| PPVKRRLDLEIDH [T11I] | 0.0475 |
| PPVKTRLDLETDH [R5T] | 0.044 |
| PPVKLRLDLETDH [R5L] | 0.118 |
| IPVKRRLDLETDH [P1I] | 0.0923 |
| PPVKRRLDLSTDH [E10S] | 0.0805 |
| PPVGRRLDLETDH [K4G] | 0.0945 |
| PPVKRRYDLETDH [L7Y] | 0.165 |
| PPVKRRLDLETDT [H13T] | 0.127 |

Repeated from above (set 3):
| Oligonucleotide | E-score |
| --- | --- |
| CCTAGTCG | -0.0608 |
| TATGCAGA | 0.0861 |
| CTGTACGC | -0.0268 |
| AGACGCCG | 0.0144 |
| GATCTGTA | -0.288 |
| CCCCTTTC | -0.0709 |
| CCACTAGA | -0.148 |
| ATAGAGGG | -0.0443 |
| GCGTCTAA | -0.0679 |
| CAAACCGG | -0.0295 |
| GAGTGCGC | 0.0254 |
| GATCTTTA | 0.167 |
| CACCTGCC | 0.16 |
| AGCTTATC | -0.0911 |
